Measured values gathered from unrelated publications.
Parts stem from different laboratories: compare values within a part only.

Set 1
Target: Prothrombin, mature alpha-thrombin (F2, Homo sapiens, UniProt P00734)
Technique: aptamer microarray, sandwich
Form: DNA with 2'F-ANA
Matrix: in vitro
Tested at: 200 nM
Notes: whole 15-mer aptamer, many near background
Together with: Cy3 exosite-II aptamer, 400 nM
Direction: higher = stronger binding
Oligonucleotide: GGTTGGTGTGGTTGG
Modification | mean fluorescence intensity
2'F-ANA at 1 2 3 5 8 12 13 15 | 100 a.u.
2'F-ANA at 1 2 3 7 8 10 | 68.9 a.u.
2'F-ANA at 2 4 5 7 8 9 11 15 | 57.5 a.u.
2'F-ANA at 1 2 4 6 9 11 12 13 14 | 53.4 a.u.
2'F-ANA at 6 9 10 12 13 15 | 163 a.u.
2'F-ANA at 2 3 5 6 7 8 9 11 14 15 | 54.7 a.u.
2'F-ANA at 1 2 4 6 8 10 11 | 51.4 a.u.
2'F-ANA at 1 2 5 7 8 9 10 12 15 | 52.6 a.u.
2'F-ANA at 2 5 7 9 10 11 12 13 14 15 | 47 a.u.
2'F-ANA at 1 3 4 5 6 7 8 9 11 13 14 15 | 62.4 a.u.
2'F-ANA at 1 3 12 13 14 | 125 a.u.
2'F-ANA at 2 5 6 7 9 11 12 13 14 | 46.3 a.u.
2'F-ANA at 1 3 5 9 10 11 12 13 14 15 | 49.3 a.u.
2'F-ANA at 1 2 3 5 10 13 15 | 46.3 a.u.
2'F-ANA at 2 3 4 6 12 13 15 | 539 a.u.
2'F-ANA at 1 2 3 5 8 9 10 11 | 44.9 a.u.
2'F-ANA at 2 3 4 8 9 13 15 | 408 a.u.
2'F-ANA at 3 6 7 10 11 12 | 623 a.u.
2'F-ANA at 1 3 6 7 9 12 15 | 521 a.u.
2'F-ANA at 2 3 8 10 11 12 13 | 426 a.u.
2'F-ANA at 3 4 5 7 8 10 15 | 53 a.u.

Set 2
Target: RNA binding protein fox-1 homolog 2, RRM domain, GST-SBP tag (RBFOX2, Homo sapiens, UniProt O43251-10, residues 100-194)
Technique: RNA Bind-n-Seq
Form: RNA
Matrix: in vitro
Tested at: 365 nM
Notes: natural RNA segment, single round, ends assumed
Reference: no-protein control
Direction: higher = stronger binding
Target sequence (chain): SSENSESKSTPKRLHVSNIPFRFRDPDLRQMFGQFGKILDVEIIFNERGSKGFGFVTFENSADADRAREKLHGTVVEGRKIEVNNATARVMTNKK
Oligonucleotide | RBNS enrichment (R)
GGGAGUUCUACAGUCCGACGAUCCUCUUUGGUCCUCAGGCCACCAGACCCCUCACAGCAUGGCCCUUGGCUCUUCCUGCACUGCCCUCACCCUCAGCCGUCCCAAGGAGUGCCCAGCACUACUCAGCAUGUAGUGGAAUUCUCGGGUGCCAA | 10.3
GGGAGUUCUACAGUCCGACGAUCGCCGUGUGUCAAGGAGAUGCCCACUGGGGCUCCAACCGUCUUCAGACACUGUGGAAGUGGGAGGGUAGCCUGGCCCUGUCUAGGAGAAAGGCCCUGCGUGGUCAGGCCUGUGGAAUUCUCGGGUGCCAA | 0.503
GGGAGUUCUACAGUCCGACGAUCGUUUCAGUCUACCCUUAAAGAAGUCAAGCCAAAAAUAGAGGUGAGGGCUACUUUGCUUCUUAAUGUAGGCCUACUGUGCACACCACACACUCUCUCUGAGGGACUGUAGCUGGAAUUCUCGGGUGCCAA | 0.337
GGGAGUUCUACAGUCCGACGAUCCAUUUUAUGUCACUAUAAUCUUUUGUUUUUUAAGUUAGUGUAUAUUUUGUUGUGAUUAUCUUUUUGUGGUGUGAAUAAAUCUUUUAUCUUGAAUGUAAUAAGAAUUUGGUUGGAAUUCUCGGGUGCCAA | 4.35
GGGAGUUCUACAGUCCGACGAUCGACUUAGGUCAUGUCACAUUGUUGAAGCCAUUCAUUCUUGAGAUGAUUCUGUACAGGAGUGCUCCUAAUCGCCACUGCACCCUAAUUGCUGAGUCAUGUGCUGAGCUACUUGGAAUUCUCGGGUGCCAA | 0.282
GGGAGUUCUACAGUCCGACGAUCUCAUGCUCAGCAGCCAGGGCCACAUCAAACUGACAGACUUUGGACUUUGCAAGGAGUCCAUUCAUGAGGGUGCUAUCACUCACACCUUCUGUGGCACCAUUGAGUACAGGUGGAAUUCUCGGGUGCCAA | 0.506
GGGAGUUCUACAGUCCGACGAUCAUUAUUUAUACUUAUUAUAAAAAGUAUUUGAAAUUUGCACAUUUAAUUGUCCCUAAUAGAAAGCCACCUAUUCUUUGUUGGAUUUCUUCAAGUUUUUCUAAAUAAAUGUAUGGAAUUCUCGGGUGCCAA | 1.03
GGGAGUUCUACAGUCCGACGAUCCCACCCGUCCAGUACCACCAAAGUAGUUCUCUGUCAUGUGUGUUCCCUGCCUGCACAAACCUACAUGUACAUACCAUGGAUUAGAGACACUUGCAGGACUGAAAGGCUGCUGGAAUUCUCGGGUGCCAA | 0.988
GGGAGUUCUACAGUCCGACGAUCCUUGAGAAUUAAGAGCUGGCAGCUGCUGAUGGUGUUUCCCAACCCCCCUCACUUCCCAAGACAACCCCCAGCUUCAGGUCCUCAUGGGGAGGGGAGGGCACGUUCUUGACUGGAAUUCUCGGGUGCCAA | 0.684
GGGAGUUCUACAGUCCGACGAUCGCUUGAUUCAAAACCAAGGAAACCAGAACCAUUGAUCUUCUAUCUCUGUGAUUGCUAAGCAGUAGCCAAAUAACCUUCCUUUGCUGUAUCUGCGUCCCUUCUGAAGGCACUGGAAUUCUCGGGUGCCAA | 0.422
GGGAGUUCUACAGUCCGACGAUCUACACCUCCAGAAUGAUAGCUGACAUUUUUGUUUUGUUUUUCAGCAGUUGCCAUGAGCCAAACCCUAAGUUAAAUAUGUAUCCUACAUAAGAGCUAAUCUCACCACUACAUGGAAUUCUCGGGUGCCAA | 0.678
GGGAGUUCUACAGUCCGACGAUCCUCUUGUAUCUAGAUACUUUAAAUAUGGGAGGCCCUUUAACUUAAUUGCCUUUAGUCAACCACUGGAUUUGAAUUUGCAUCAAGUAUUUUAAAUAAUAUUGAAUUUAAAAUGGAAUUCUCGGGUGCCAA | 0.721

Set 3
Target: Histone acetyltransferase KAT6A, winged helix 1, GST fusion (KAT6A, Homo sapiens, UniProt Q92794, residues 1-85)
Technique: protein binding microarray
Form: double-stranded DNA, one strand shown
Matrix: in vitro
Tested at: not given
Notes: 8-mer, flanks averaged, mean of 2 arrays, mostly near background
Reference: not given
Direction: higher = stronger binding
Residues (chain): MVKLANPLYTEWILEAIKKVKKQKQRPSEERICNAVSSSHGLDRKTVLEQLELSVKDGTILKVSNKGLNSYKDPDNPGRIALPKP
Oligonucleotide | E-score
TAGGCCGA | 0.0337
CACCCTCA | -0.191
ACGCTTCT | 0.0804
AAATAATC | -0.133
CACGCTAA | 0.104
AGACTACC | -0.0261
CTAACGGC | 0.316
CCCAGTAC | -0.212
CCACTAAG | -0.151
ACACCTAG | -0.146
AGCGTTGC | 0.153
CACGAGAG | -0.0623
ACACGGAA | 0.212
AGACCGGA | -0.0035
GTATTTGA | -0.0833
AGCCACAC | -0.215
CCCTGCAG | -0.00366
ACTAGGAT | -0.204
ACCACACA | -0.341
AGTGTTTA | 0.00511
CCCTCTCA | -0.318
CGTGAGCC | 0.211
ATACGCCA | 0.0387
GAGACCAA | -0.0576
GACAAAGA | -0.162

Set 4
Target: Interferon regulatory factor 5, full length, phosphomimetic (IRF5, Homo sapiens, UniProt Q13568-2, residues 1-514, K96S/S451D/S453D/S456D/S462D)
Technique: protein-binding microarray
Form: double-stranded DNA, one strand shown
Matrix: in vitro
Tested at: 250 nM
Notes: 60-bp whole probe
Together with: salmon DNA 0.4 mg/ml
Reference: random background probes
Direction: higher = stronger binding
Constant ends, left off below: GCCTAGCAC … GTCTTGATTCGCTTGACGCTGCTG
Oligonucleotide | log fluorescence
TTAGGTATCGTTATCCTTTAGTGCTAG | 3.2 z-score
GACGGTCTCGGTCTTGGGACGTGCTAG | -0.146 z-score
CTGTTTTTGCTTTCTTTTTGGTGCTAG | 2.69 z-score
GACCGTTTCGGGACTGGGGACGTGCTA | 3.65 z-score
TTAGGTATCGGGTATCGGTGAGTGCTA | 5.46 z-score
GACTGACTGGGGACTGGGGACGTGCTA | -0.325 z-score
TTAGGTCTCGGTATCGGTTCGTGCTAG | 3.93 z-score
TTAGATTTCGGGACTGAATTAGTGCTA | 3.03 z-score
GACGGACTGGACTATAGGGACGTGCTA | -0.564 z-score
GACGGTATCTGGTTTCGGGACGTGCTA | 4.13 z-score
CAGGGTTTCACTTTAAATTAGTGCTAG | 4.09 z-score
GACGATTCCAGTTCCGAGACGTGCTAG | 0.263 z-score
GACGGTTGCGGACTGGGGACGTGCTAG | -0.138 z-score
GACGGTATCGGTATCGGCACGTGCTAG | 6.48 z-score
TGTCTTCCCCTCTCTTTCCAAGTGCTA | 0.495 z-score
TCATTTTTTGTAATCGAACTGTGCTAG | 0.839 z-score
TTAGTTCTGAGTCTTCCCTTGTGCTAG | 0.452 z-score
TCAGCTGTGGGTTTGAGACTGTGCTAG | -0.378 z-score
TTAGGACTGGACTTTCCGTTAGTGCTA | 0.384 z-score
GACGGTTCCGGTTTCGGGCCGTGCTAG | 4.08 z-score
TCAGCTTCCTCTTTTTTACTGTGCTAG | 0.671 z-score
TTAGAACTGAGCCTCGATTAGTGCTAG | -0.262 z-score
GACGAACTTAGTCTCGAGACGTGCTAG | 0.0574 z-score
CTTTCTTTCCATACTGCAAGGTGCTAG | 2.7 z-score
TTCGGTATCCTTTTCCTTTAGTGCTAG | 1.71 z-score

Set 5
Target: Sal-like protein 4, full length isoform A (SALL4, Homo sapiens, UniProt Q9UJQ4, residues 1-1053)
Chain of UniProt Q9UJQ4 (whole entry, looked up): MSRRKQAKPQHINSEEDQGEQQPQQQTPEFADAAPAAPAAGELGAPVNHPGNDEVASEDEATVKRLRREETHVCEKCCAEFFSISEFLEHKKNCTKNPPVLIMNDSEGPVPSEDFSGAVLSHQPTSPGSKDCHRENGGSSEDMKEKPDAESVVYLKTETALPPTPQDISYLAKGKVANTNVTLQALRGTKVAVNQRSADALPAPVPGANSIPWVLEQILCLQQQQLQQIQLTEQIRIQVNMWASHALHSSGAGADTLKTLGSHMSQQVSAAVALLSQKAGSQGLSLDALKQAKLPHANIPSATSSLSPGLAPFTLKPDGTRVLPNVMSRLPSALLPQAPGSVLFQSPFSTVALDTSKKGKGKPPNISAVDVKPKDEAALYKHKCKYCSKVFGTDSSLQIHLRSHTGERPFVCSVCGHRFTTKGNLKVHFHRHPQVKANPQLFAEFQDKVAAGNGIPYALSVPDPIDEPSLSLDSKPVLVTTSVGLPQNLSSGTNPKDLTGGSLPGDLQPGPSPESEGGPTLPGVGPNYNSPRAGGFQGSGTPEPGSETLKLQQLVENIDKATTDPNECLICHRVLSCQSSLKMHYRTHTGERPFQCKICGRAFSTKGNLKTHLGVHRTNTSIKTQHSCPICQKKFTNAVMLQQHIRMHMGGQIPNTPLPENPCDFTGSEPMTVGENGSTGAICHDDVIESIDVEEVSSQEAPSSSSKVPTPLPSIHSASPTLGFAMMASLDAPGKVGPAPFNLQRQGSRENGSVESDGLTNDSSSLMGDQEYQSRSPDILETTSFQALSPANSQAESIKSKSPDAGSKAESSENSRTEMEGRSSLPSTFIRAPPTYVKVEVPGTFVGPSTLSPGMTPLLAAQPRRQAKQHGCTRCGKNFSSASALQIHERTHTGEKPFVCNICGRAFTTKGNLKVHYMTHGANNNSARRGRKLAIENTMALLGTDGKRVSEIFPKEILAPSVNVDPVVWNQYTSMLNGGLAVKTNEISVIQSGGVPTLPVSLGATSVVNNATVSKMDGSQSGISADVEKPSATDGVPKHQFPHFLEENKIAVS
Technique: universal PBM
Form: double-stranded DNA, one strand shown
Matrix: in vitro
Tested at: 600 nM
Notes: 8-mer, flanks averaged, mean of replicates
Direction: higher = stronger binding
Oligonucleotide | E-score
CATGGATA | 0.122
CAGCAAAC | -0.0935
ACCCTCCG | -0.348
ATTGACTA | 0.124
GATTTTTA | 0.278
ACGATGTA | 0.191
AGAAATCG | 0.0669
AATGACCA | 0.0339
ATTAAGGG | 0.0641
ACGGTAAA | 0.185
AGATAGAA | 0.107
GGCGCGCC | -0.156
AGAATGCT | 0.0635
GGGGTGAC | -0.147
ACGCACGT | -0.0738
CATAACTC | 0.275
CGGGCCCA | -0.324
CCAGGCGG | -0.335
ACCACGTA | -0.114
AAGCTGGC | -0.163
CTGTCAAC | -0.149
